{"data": "Results collected from several papers", "note": "Parts stem from different laboratories: compare values within a part only."}
{"data": "Study 1", "target": "Interferon regulatory factor 7, full length, phosphomimetic (IRF7, Homo sapiens, UniProt Q92985, residues 1-503, S471D/S472D/S475D/S476D/S477D/S483D/S484D/S487D)", "method": "protein-binding microarray", "molecule type": "double-stranded DNA, one strand shown", "sample": "in vitro", "concentration": "2200 nM top", "notes": "60-bp whole probe", "added": "salmon DNA 0.4 mg/ml", "baseline": "random background probes", "direction": "higher = stronger binding", "all sequences stand within": "GCCTAGCAC … GTCTTGATTCGCTTGACGCTGCTG", "Residues (chain)": "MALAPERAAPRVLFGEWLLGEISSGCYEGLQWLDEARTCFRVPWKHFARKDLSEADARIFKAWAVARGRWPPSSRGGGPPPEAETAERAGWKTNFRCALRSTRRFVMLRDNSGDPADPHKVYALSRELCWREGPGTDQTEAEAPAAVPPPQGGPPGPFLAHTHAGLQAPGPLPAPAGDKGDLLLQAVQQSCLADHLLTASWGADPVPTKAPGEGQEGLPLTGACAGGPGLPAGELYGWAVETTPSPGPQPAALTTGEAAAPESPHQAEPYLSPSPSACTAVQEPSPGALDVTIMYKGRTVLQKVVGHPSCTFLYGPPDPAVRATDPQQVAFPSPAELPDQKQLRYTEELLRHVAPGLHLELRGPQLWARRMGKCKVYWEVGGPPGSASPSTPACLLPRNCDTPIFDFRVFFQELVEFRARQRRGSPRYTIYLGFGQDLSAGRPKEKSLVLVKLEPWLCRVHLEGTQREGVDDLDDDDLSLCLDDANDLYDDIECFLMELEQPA"}
{"Strand": "GACGGTCTCCCTTTCCTGACGTGCTAG", "fitted relative affinity": "1.44 z-score"}
{"Strand": "GGTACAAACTTGTAATTATAGTGCTAG", "fitted relative affinity": "-0.277 z-score"}
{"Strand": "TTAGGTATCGGTTTCTGTTAGTGCTAG", "fitted relative affinity": "3.9 z-score"}
{"Strand": "GACGGTATCCATTTCCTGACGTGCTAG", "fitted relative affinity": "1.38 z-score"}
{"Strand": "TTAGAACTGGGGTATAGATTAGTGCTA", "fitted relative affinity": "-0.151 z-score"}
{"Strand": "GACGGTATCCTACTGCTAACGTGCTAG", "fitted relative affinity": "0.747 z-score"}
{"Strand": "GACGGTCTCTGACTGGGGACGTGCTAG", "fitted relative affinity": "-0.548 z-score"}
{"Strand": "TTAGGTATCGGCATCGGTTAGTGCTAG", "fitted relative affinity": "0.257 z-score"}
{"Strand": "TTAGGTCTCGGTAACGGTTAGTGCTAG", "fitted relative affinity": "-0.205 z-score"}
{"Strand": "TCAGGAGTGTTTCTCAGACTGTGCTAG", "fitted relative affinity": "-0.113 z-score"}
{"Strand": "TTAGGTATCTGTATCGGTTAGTGCTAG", "fitted relative affinity": "0.696 z-score"}
{"Strand": "ATGCTTTACTCACTCGGAAAGTGCTAG", "fitted relative affinity": "1.24 z-score"}
{"Strand": "TTAGCTATCGACTTTCGGTTAGTGCTA", "fitted relative affinity": "6.09 z-score"}
{"Strand": "TCAACTTTTTTTTTTCCACTGTGCTAG", "fitted relative affinity": "1.65 z-score"}
{"Strand": "TTATATCTCAGTATCGATTAGTGCTAG", "fitted relative affinity": "0.962 z-score"}
{"Strand": "TTAGGCTTCCTACTGCTTTAGTGCTAG", "fitted relative affinity": "0.528 z-score"}
{"data": "Study 2", "target": "Fragile X messenger ribonucleoprotein 1, C-terminal low-complexity region (Fmr1, Mus musculus, UniProt P35922)", "method": "RNA Bind-n-Seq", "molecule type": "RNA", "sample": "in vitro", "concentration": "200 nM", "notes": "whole 134-nt RNA, ends assumed", "added": "150 mM KCl", "baseline": "input library", "direction": "higher = stronger binding"}
{"Strand": "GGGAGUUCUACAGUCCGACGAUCACCAUGCAGGUGGGCAUCUUUGGGAAGUGGGGCAAGGGGGGGAUAGGGAGGGUGGUAACACUUUGGGAACAGGUGGUCCCAGGUCGUUUCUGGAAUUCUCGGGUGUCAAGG", "log2 enrichment": 0.792}
{"Strand": "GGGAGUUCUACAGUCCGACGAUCAGUCCUGUGCUACACAUCGUAUGUACCGAAUCGGGUUUUUGGGUUUUUUUGGGUGGGAAAGUAUUAUGUUACGCCGUUCGGAUCUGCACUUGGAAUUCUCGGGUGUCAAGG", "log2 enrichment": 0.844}
{"Strand": "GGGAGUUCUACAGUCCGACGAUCUGCCGAUUCGGAAGUCCUUGAGGAGCGUCAGAAGCGGCUUCCCUACGUCCCAGAGCCCUAUUACCCGGAAUCUGGAUGGGACCGCCUCCGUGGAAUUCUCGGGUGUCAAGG", "log2 enrichment": -0.489}
{"Strand": "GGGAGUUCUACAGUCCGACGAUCAGUCCUGUGCUACACAUCGUAUGUACCGAAUCGGGGUUUUUGGGGUUUGGGGUGGGGAAAGUAUUAUGUUACGCCGUUCGGAUCUGCACUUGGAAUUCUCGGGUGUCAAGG", "log2 enrichment": 1.06}
{"Strand": "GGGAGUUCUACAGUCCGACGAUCCACAGACAACACGCACCCACACACACACAGAGGGAAGGGGUUGGGAUGGGGACAGGGUGCACAGCAGGGCGGGGUAGGACCCCAGCCCCUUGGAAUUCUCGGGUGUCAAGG", "log2 enrichment": 1.16}
{"Strand": "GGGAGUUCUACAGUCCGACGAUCAAGUCCUGUGCUACACAUCGUAUGUACCGAAUCGGGGCCCCGGGCCCCGGCCCCGGGAAAGUAUUAUGUUACGCCGUUCGGAUCUGCACUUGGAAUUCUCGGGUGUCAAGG", "log2 enrichment": -0.719}
{"Strand": "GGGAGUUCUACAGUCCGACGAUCAAGUCCUGUGCUACACAUCGUAUGUACCGAAUCGGAAAAGGGAAAAGGGAAAAGGGGAAAGUAUUAUGUUACGCCGUUCGGAUCUGCACUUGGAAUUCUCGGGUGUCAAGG", "log2 enrichment": -0.0348}
{"Strand": "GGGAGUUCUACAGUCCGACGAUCCACAGACAACACGCACCCACACAGACACAGAGGGAAGGGGUUGGGAUGGGGACAGGGUGCACAGCAGGGCGGGGUAGGACCCCUGCCCCUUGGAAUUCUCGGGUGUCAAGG", "log2 enrichment": 1.37}
{"Strand": "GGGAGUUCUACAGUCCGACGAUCCAAGUCCUGUGCUACACAUCGUAUGUACCGAAUCGGAAAGGGAAAGGGGAAAGGGGAAAGUAUUAUGUUACGCCGUUCGGAUCUGCACUUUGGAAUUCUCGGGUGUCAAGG", "log2 enrichment": 0.0621}
{"Strand": "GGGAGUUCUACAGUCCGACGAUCACCAUGCAGGUGGGCAUCUUUGGGAAGUGGGGCAAGGGGGGGAUAGGGAGGGGGGUAACACUUUGGGAACAGGUGGUCCAAAGUCGUUUCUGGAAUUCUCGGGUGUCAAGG", "log2 enrichment": 0.78}
{"data": "Study 3", "target": "Histone acetyltransferase KAT6A, winged helix 2, GST fusion (KAT6A, Homo sapiens, UniProt Q92794, residues 85-181)", "method": "protein binding microarray", "molecule type": "double-stranded DNA, one strand shown", "sample": "in vitro", "concentration": "not given", "notes": "8-mer, flanks averaged, mean of 2 arrays, mostly near background", "baseline": "not given", "direction": "higher = stronger binding", "Target sequence (chain)": "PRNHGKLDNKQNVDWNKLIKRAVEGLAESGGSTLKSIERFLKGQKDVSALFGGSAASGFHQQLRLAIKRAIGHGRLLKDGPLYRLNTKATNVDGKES"}
{"Strand": "GTAATCCA", "E-score": -0.0487}
{"Strand": "CGTCGAAC", "E-score": 0.0423}
{"Strand": "ACCGCTAA", "E-score": 0.00464}
{"Strand": "ACGGCGTA", "E-score": -0.0196}
{"Strand": "ACCGTAGA", "E-score": -0.172}
{"Strand": "CGATTGAC", "E-score": -0.124}
{"Strand": "CCCGCTCC", "E-score": -0.0309}
{"Strand": "TAAGGCCA", "E-score": -0.0724}
{"Strand": "CAGTAGTC", "E-score": -0.261}
{"Strand": "AATGGTAT", "E-score": -0.0895}
{"Strand": "GATACGCC", "E-score": 0.0607}
{"Strand": "ACTGTCTC", "E-score": -0.0811}
{"Strand": "ATCTGCAC", "E-score": -0.0538}
{"Strand": "ATTGTATC", "E-score": -0.0243}
{"Strand": "CGACAGTC", "E-score": -0.0965}
{"Strand": "ATCAGTGG", "E-score": -0.0964}
{"Strand": "CGATCTTA", "E-score": -0.141}
{"Strand": "TGATAGCA", "E-score": 0.133}
{"Strand": "GGCAACGA", "E-score": 0.154}
{"Strand": "GAGTCTGA", "E-score": -0.0514}
{"Strand": "TAAGCTTA", "E-score": 0.0582}
{"Strand": "CTAATGGC", "E-score": 0.0535}
{"Strand": "CTACGCCA", "E-score": -0.0702}
{"Strand": "CTTATCTA", "E-score": -0.0499}
{"Strand": "ACGCGGAC", "E-score": 0.187}
{"data": "Study 4", "target": "RNA binding protein fox-1 homolog 2, RRM domain, GST-SBP tag (RBFOX2, Homo sapiens, UniProt O43251-10, residues 100-194)", "method": "RNA Bind-n-Seq", "molecule type": "RNA", "sample": "in vitro", "concentration": "365 nM", "notes": "natural RNA segment, single round, ends assumed", "baseline": "no-protein control", "direction": "higher = stronger binding", "Target sequence (chain)": "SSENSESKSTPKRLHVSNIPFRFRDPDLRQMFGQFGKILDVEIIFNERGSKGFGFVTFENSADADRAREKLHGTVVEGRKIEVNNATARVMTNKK"}
{"Strand": "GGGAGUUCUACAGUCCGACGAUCACCCGCUCGCUCCUAAAGAGAAAGACCCAGGACCCUCCCCCAUCACCCCCAAGAGAGGUUCGCCAUCCUCUGGCCUCGAGCCCUUGGUCCCUCCGUCCGUCUGUCCUCGGUGGAAUUCUCGGGUGCCAA", "RBNS enrichment (R)": 0.637}
{"Strand": "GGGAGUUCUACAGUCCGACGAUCCAGAGAACUGGCCUAAGCUCUAGAUUAGCCAAGAAAGCUGGAAAACAGAGCGCCAGGCUUCACUCUGCAGAGAGAAAGUGCUCUGUCCCUGUAGCGUCUGAUUCCACUUAUGGAAUUCUCGGGUGCCAA", "RBNS enrichment (R)": 0.232}
{"Strand": "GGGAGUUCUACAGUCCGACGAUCUCACAAAUUGAGGAGUGAAAUAGGAGACUGCAUGCUGGAUUUCAUGAUGAAAAUUUAUACUUUCACAUAGGAAAAUAAUUGCCUUUCCAUUGCUCCUUCUGAAGCAUUUCUGGAAUUCUCGGGUGCCAA", "RBNS enrichment (R)": 1.87}
{"Strand": "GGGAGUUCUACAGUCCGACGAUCCAAGCUGAGUUUCCUCUUCUGAGGCAGAGGCUGGAGCAGUUCUUUUUCAGUUCUCAUCCUCUCCAUCCCAAUCCAGUAUAUCAAUCAACUCUAACUCGGAGACGUCUAGCUGGAAUUCUCGGGUGCCAA", "RBNS enrichment (R)": 0.285}
{"Strand": "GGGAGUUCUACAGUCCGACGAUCCAGGGGAAGUGGGAGCAGAUGGCCUGCCUGUGGUUGAGAGGGCUACCUGCCCGACCCCUCCCCCACCAAGGUAUCUUGGGCUCCAGCCUCAGAGCCUGGACUAGUUCUGAUGGAAUUCUCGGGUGCCAA", "RBNS enrichment (R)": 1.02}
{"Strand": "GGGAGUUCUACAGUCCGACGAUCUCCCCCUGUUGGUACAUUUGGUUACCUCAUUUUGCCGUUUCAGAUUGUGAAAGCUCACAGGGGUGUUUUUUGGAAUCAUUUGCUGAGUCAUUUUCUCAAAUCAUAUUCCAUGGAAUUCUCGGGUGCCAA", "RBNS enrichment (R)": 0.438}
{"Strand": "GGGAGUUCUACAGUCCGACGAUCAGAUCACAGAAGAUACAGUUGAGUUCGGAUCAUAGAGACCAUCUCAAGAACUUCAUUUGCUUCAAAACAAGAUAAUGAACAGAAUGCAUUUGUAAAUGCAAGAUGCAUUGUGGAAUUCUCGGGUGCCAA", "RBNS enrichment (R)": 0.289}
{"Strand": "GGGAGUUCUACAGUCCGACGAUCCCAUAGUACUUAAAUUGAACAGUUGCAAAGAUGUCUUAAUUGUGUAAAGAAUUGGUGUAGUCAUGACUUUAGCUGAUACUCUUAUGUACGAGAUCUGUCUCUGCUGUUUAUGGAAUUCUCGGGUGCCAA", "RBNS enrichment (R)": 0.587}
{"Strand": "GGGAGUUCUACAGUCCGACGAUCUAGUUUUAUAAAGACAAACCGAUUGUAGCCAAAUGACACCAUAUUUAAUAAAAUUUAGUCUGAAGUGUGUACUGUGUUUUGUGUUGCCCGAUAUUAAAACCAAACUUUUGUGGAAUUCUCGGGUGCCAA", "RBNS enrichment (R)": 0.991}
{"Strand": "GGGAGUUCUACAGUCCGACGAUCCACCGAGAAGACAAGGGAAGGUCUUCCCCCCAGAGGCACAUUCCUGUCCGUCUUUCUGCUGCACACCUGGACCAAGCUUGCAGGCUGCCAGACUCACUCAACCUCCAGAGUGGAAUUCUCGGGUGCCAA", "RBNS enrichment (R)": 1.39}
{"Strand": "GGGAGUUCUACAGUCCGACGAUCCCCAGGCAGCAAGCAAGCUGUGAACAGCUGGCCUGAGCUGUCGCUGUGGCUUGUGGCUCAUGCGCCAUUCCUGGUUGUCUGUUGAAUCUUUCUGGCUGCUGGAAUUGGAGUGGAAUUCUCGGGUGCCAA", "RBNS enrichment (R)": 2.21}
{"Strand": "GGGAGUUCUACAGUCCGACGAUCCAGCUCAGCACUCAGUCAGUGGUAACUUGUGCCCAGCCCUGUGCUAGGCGCUGACAUUAACAGGAGCAACCAGGGCCCAAUUCCUGGCCUUGGAGCUCAAAUCUUUCCUUUGGAAUUCUCGGGUGCCAA", "RBNS enrichment (R)": 0.258}
